Published values gathered from unrelated publications.
Protocols differ between the studies behind these lines. ± gives the spread as reported.
ESR1: Estrogen receptor (ESR1, Homo sapiens, UniProt P03372)
ADORA1: Adenosine receptor A1 (ADORA1, Homo sapiens, UniProt P30542)
SLC10A2: Ileal sodium/bile acid cotransporter (SLC10A2, Homo sapiens, UniProt Q12908)
ALB: Albumin (ALB, Homo sapiens, UniProt P02768)
ABO G235S/G268A/L266M/R176G: Histo-blood group ABO system transferase (ABO, Homo sapiens, UniProt P16442, G235S/G268A/L266M/R176G)
T1: DNA aptamer; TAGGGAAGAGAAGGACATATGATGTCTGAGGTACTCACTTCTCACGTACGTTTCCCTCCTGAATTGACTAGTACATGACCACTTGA
T2: pre-miR-21 RNA (Homo sapiens); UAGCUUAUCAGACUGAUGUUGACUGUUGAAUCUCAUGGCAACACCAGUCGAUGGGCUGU

SMILES	target	test	system	conditions	scale	quantity	result
N=C(N)NCCC[C@H](NC(=O)[C@H](CC(=O)O)NC(=O)[C@@H]1CSCCC(=O)NCC(=O)N[C@@H](Cc2c[nH]cn2)C(=O)N[C@H](Cc2ccccc2)C(=O)N[C@@H](CCCNC(=N)N)C(=O)N[C@@H](Cc2c[nH]c3ccccc23)C(=O)N1)C(=O)N[C@@H](Cc1ccccc1)C(=O)NCC(N)=O	Melanocyte-stimulating hormone receptor (MC1R, Homo sapiens, UniProt Q01726)	cAMP accumulation, agonist	HEK293 expressing MC1R	10 µM	relative to: MT-II	activation	10%
N[C@@H](Cc1ccc(O)c(I)c1)C(=O)O	Iodotyrosine deiodinase (IYD, Thermotoga neapolitana, UniProt B9K712, F88A/W82A/Y112A)	binding, FMN fluorescence quenching	–	25 °C	–	Kd ratio, W82A/F88A/Y112A over wild type	18 fold
CCCCOc1ccc(C(=O)OCC[N+]2(C)CC=CCC2)cc1 (stereo not shown)	Muscarinic acetylcholine receptor M3 (CHRM3, Homo sapiens, UniProt P20309)	recovery of [3H]NMS binding after washing	membranes	100 µM	–	dissociation half-time	0.4 ± 0.1 h
O=C(CCCCCCNc1ccc(C(=O)Nc2ccc(Cl)c(NC(=O)c3cccc(Cl)c3)c2)cn1)NO	Protein smoothened (SMO, Homo sapiens, UniProt Q99835, W535L)	Smo ciliary translocation	NIH3T3 expressing SMO-EYFP	with: Shh-N or SAG 100 nM	–	ciliary accumulation	no effect
CCCCCCOc1ccc(C(=O)OCCN2CC=CCC2)cc1	Muscarinic acetylcholine receptor M5 (CHRM5, Homo sapiens, UniProt P08912)	antagonist, refers to: inositol phosphates	CHO	M5, with: carbachol	–	cooperativity factor	0.0008 ± 0.0003
C=CCC(=N)NCCC[C@H](N)C(=O)O	Nitric oxide synthase 1 (Mus musculus, UniProt Q9Z0J4)	NMDA-evoked cGMP accumulation, inhibitor	adult mouse hippocampal slices	fixed for fitting	–	Hill slope	1
O=c1[nH]cnc2c(CN3C[C@H](O)[C@@H](O)C3)c[nH]c12	Purine nucleoside phosphorylase (PNP, Homo sapiens, UniProt P00491)	–	–	first subunit	–	binding free energy	-10 ± 0.04 kcal/mol
CCSc1nc2c([nH]1)c(=S)n(C)c(=S)n2C	ESR1	reporter gene, ERE luciferase	T47D-KBluc	10 µM, 24 h, with: estradiol 5 nM	relative to: maximal luciferase activity	reporter activity	95%
N#Cc1c(N)nc(SCc2ncc[nH]2)c(C#N)c1-c1cccc(F)c1	ADORA1	cAMP, agonist	–	–	–	Emax	32%
CNc1ccccc1C(=O)O[C@H]1C[C@H](n2cnc3c(N)ncnc32)O[C@@H]1COP(=O)(O)OP(=O)(O)O	Unconventional myosin-Va (Gallus gallus, UniProt Q02440, D297C/G292C/I296C/S293C/V295G)	stopped-flow FRET	–	25 °C, with: MgCl2 10 mM	–	association rate constant	4.72e+06 ± 210000 M⁻¹ s⁻¹
CC[C@H](C)[C@H](NC(=O)[C@@H](NC(=O)[C@H](CS)NC(=O)[C@H](CCSC)NC(C)=O)[C@@H](C)O)C(=O)N[C@@H](CC(=O)O)C(=O)N[C@@H](Cc1ccc(F)cc1)C(=O)N[C@@H](CC(=O)O)C(=O)N[C@@H](CCC(=O)O)C(=O)N[C@@H](Cc1ccc(O)cc1)C(=O)N[C@@H](CCCNC(=N)N)C(=O)N[C@@H](Cc1ccc(F)cc1)C(=O)N[C@@H](CCCNC(=N)N)C(=O)N[C@@H](CCCCN)C(=O)N[C@H](C(N)=O)[C@@H](C)O	Breast cancer type 1 susceptibility protein, tandem BRCT domains (BRCA1, Homo sapiens, UniProt P38398)	isothermal titration calorimetry	–	concentration not given, pH 7.4, 25 °C, negative ΔH	–	binding enthalpy magnitude	24.6 kcal/mol
CC(CCC(=O)NC(CCC(=O)Nc1ccccc1O)C(=O)O)C1CCC2C3C(O)CC4CC(O)CCC4(C)C3CCC12C (stereo not shown)	SLC10A2	transport, substrate, LC-MS/MS	ASBT-MDCK cells	–	–	Kt	5.57 µM
CCc1nc2cc3ccccc3cc2cc1C(=O)N1CCC[C@H]1C(=O)N[C@@H](CCC/C=C\CCC[C@H](NC(=O)[C@@H]1CCCN1C(=O)c1cc2cc3ccccc3cc2nc1CC)C(=O)N[C@@H](CCCCN)C(=O)NCCCN)C(=O)N[C@@H](CCCCN)C(=O)NCCCN	(CCUG)10 RNA	SPR	–	–	–	residence time	130 s
CC1=C(/C=C/C=C\C=C\C(C)=C\C=O)C(C)(C)CCC1	Rhodopsin (RHO, Homo sapiens, UniProt P08100, T289P)	pharmacological chaperone, immunostaining, nonpermeabilized cells	661W	2.5 µM, 16 h	relative to: untreated cells	cell surface expression	~6 fold
C#CCCCC[C@H](C)C[C@@H](C)C(=O)N(C)[C@@H](C)C(=O)N1CCC[C@H]1C(=O)N(C)[C@H](C(=O)N(C)[C@H](C(=O)OC)C(C)C)C(C)C	Apoptosis regulator Bcl-2 (BCL2, Homo sapiens, UniProt P10415)	cellular thermal shift	DU-145	–	highest temperature with stabilization	stabilization temperature limit	≤ 46 °C
CNc1nc(C#Cc2ccc(Cl)s2)nc2c1ncn2[C@@H]1O[C@H](CO)[C@@H](O)[C@H]1O	Adenosine receptor A3 (ADORA3, Homo sapiens, UniProt P0DMS8)	kinetic radioligand binding	–	10 °C, no GTP, with: [3H]PSB-11	–	koff	0.00013 ± 2e-05 s⁻¹
O=Cc1ccc(-c2cn([C@@H]3O[C@H](COP(=O)(O)OP(=O)(O)O[C@H]4O[C@H](CO)[C@H](O)[C@H](O)[C@H]4O)[C@@H](O)[C@H]3O)c(=O)[nH]c2=O)s1	Histo-blood group ABO system transferase (ABO, Homo sapiens, UniProt P16442, G268A/L266G)	substrate, HPLC	–	–	–	kcat	0.024 ± 0.001 s⁻¹
CC1=C(/C=C/C(=O)N2CCN(C(N)=O)CC2)C(C)(C)CCC1	Rhodopsin (RHO, Homo sapiens, UniProt P08100, T17M)	pharmacological chaperone, confocal microscopy	T-REx-293 expressing T17M opsin	concentration not given	relative to: DMSO	plasma membrane association	increased
CCNC(=O)[C@H]1O[C@@H](n2cnc3c(NCCCNC(=O)CCCCCNC(=O)COc4ccc(/C=C/C5=[N+]6C(=Cc7ccc(-c8cccs8)n7[B-]6(F)F)C=C5)cc4)ncnc32)[C@H](O)[C@@H]1O	ADORA1	CRE reporter gene, agonist	CHO-A1	PTX 100 ng/mL overnight, with: forskolin 3 µM	relative to: forskolin alone	maximal Gs response	1.67 ± 0.06 fold increase
C[C@@H]1O[C@@H](O[C@H]2C(=O)c3c(O)cc(O)cc3O[C@@H]2c2ccc(O)cc2)[C@H](O)[C@H](O)[C@H]1O	Tyrosine-protein phosphatase non-receptor type 1 (PTPN1, Homo sapiens, UniProt P18031)	fluorescence quenching	–	concentration not given	–	binding site number	1.02

SMILES	target	test	system	conditions	scale	quantity	result
CCCCCC(C)NCC(=O)O (stereo not shown)	ALB	circular dichroism	–	0.12 mM	–	β-sheet content	8.2%
C[C@H](CCC(=O)N[C@@H](CCC(=O)Nc1cncc(F)c1)C(=O)O)[C@H]1CC[C@H]2[C@@H]3[C@H](O)C[C@@H]4C[C@H](O)CC[C@]4(C)[C@H]3CC[C@]12C	SLC10A2	transport, substrate	ASBT-MDCK cells	unit not given	relative to: taurocholate Jmax	Jmax	0.361
CCC(=C(c1ccc(O)cc1)c1ccc(OCCN(C)CCOCCOCCOCCN(C)CCOc2ccc(C(=C(CC)c3ccccc3)c3ccc(O)cc3)cc2)cc1)c1ccccc1 (mixture of isomers)	ESR1	ligand, radioligand competition binding	–	concentration not given, with: [3H]estradiol tracer	relative to: estradiol	relative binding affinity	37.2 ± 2.3%
CC(=C(c1ccc(O)cc1)c1ccc(Cl)cc1)c1ccc(Cl)cc1	ESR1	reporter gene, agonist, yeast estrogen screen	–	1 µM	relative to: DMSO	fold activation	12.8 ± 1.9 fold
Nc1nc2ccccc2n1Cc1ccccc1	Beta-secretase 1 (BACE1, Homo sapiens, UniProt P56817, D93N)	binder, surface plasmon resonance	–	concentration not given, D32N catalytic-site mutant	–	binding	binds
O=C(C1CC1)N1CC=C(c2cc3c(Nc4cc5ncsc5cc4F)ncnc3s2)CC1	Receptor-interacting serine/threonine-protein kinase 1 (RIPK1, Homo sapiens, UniProt Q13546)	enzyme activity	–	1 µM	relative to: untreated	remaining activity	105 ± 2%
CCCCCCCCO[C@@H]1O[C@H](CO)[C@H](O)[C@H](O)[C@H]1O[C@@H]1O[C@@H](C)[C@@H](O)[C@@H](O)[C@@H]1O	ABO G235S/G268A/L266M/R176G	methyl-TROSY NMR titration lineshape	–	two-state binding model, with: acceptor binding, saturating UDP	–	koff	6.9 ± 0.4 s⁻¹
CN1CCN(CC(=O)N2N=C3/C(=C/c4ccccc4)CCCC3C2c2ccccc2)CC1 (mixture of isomers)	Polyunsaturated fatty acid lipoxygenase ALOX15 (ALOX15, Homo sapiens, UniProt P16050)	activator	–	10 µM, with: arachidonic acid 50 µM	relative to: no activator	initial rate increase	71%
Cc1ccc(C(C)C)cc1.[C-]#[O+].[C-]#[O+].[C-]#[O+].[Cl-].[Cl-].[Cl-].[Re+].[Ru+2].c1cnc(-c2ncccn2)nc1	ALB	tryptophan fluorescence quenching	–	–	–	Stern-Volmer constant	55000 M⁻¹
CC(=O)[C@H]1CC[C@H]2[C@@H]3CCC4=CC(=NOCC(=O)O)CC[C@]4(C)[C@H]3CC[C@]12C	T1, DNA aptamer	plate-ELAA	–	NaCl 100 mM	–	Kd	0.00057 µM
CCN(CC)CCOc1ccc(C(=C(C)Cc2ccc(Cl)cc2)c2ccc(Cl)cc2)cc1	ESR1	reporter gene, agonist, yeast estrogen screen	–	1 µM	relative to: DMSO	fold activation	1.05 ± 0.1 fold
CC1=C(/C=C/C(C)=C/C=C/C(C)=C/C=O)C(C)(C)CCC1	Cyclic nucleotide-gated channel alpha-1 (CNGA1, Bos taurus, UniProt Q00194)	channel binding, allosteric model fit	–	closed unliganded channel	–	association constant K1	9e+10 M^-n
COc1ccc(NC(=O)CCCOc2ccc(-c3nc4cc(-c5ccc(N6CCN(C)CC6)cc5)ccc4[nH]3)cc2)cc1OCc1cn2ccccc2n1	T2, pre-miR-21 RNA (Homo sapiens)	RNase L cleavage, competitor, RNase L cleavage assay	–	with: RIBOTAC TGP-21-C1-3	–	IC50	12 µM
Cc1ccc(C(=O)Nc2ccc(CP(=O)(O)O)cc2CP(=O)(O)O)cc1NC(=O)c1cccc(NC(=O)Nc2cccc(C(=O)Nc3cc(C(=O)Nc4ccc(CP(=O)(O)O)cc4CP(=O)(O)O)ccc3C)c2)c1	Coagulation factor XI (F11, Homo sapiens, UniProt P03951)	enzyme activity, inhibitor	–	10 µM, with: S-2366 substrate	–	Vmax	91.8 ± 3.4 mAU/min
CCNC(=O)[C@H]1O[C@@H](n2cnc3c(NCCCCCNC(=O)CCCCCNC(=O)COc4ccc(/C=C/C5=[N+]6C(=Cc7ccc(-c8cccs8)n7[B-]6(F)F)C=C5)cc4)ncnc32)[C@H](O)[C@@H]1O	ADORA1	radioligand binding, whole-cell binding	CHO-A1	2 h, with: [3H]DPCPX	relative to: specific binding, 10 µM XAC	maximal inhibition	45.3 ± 4.2%
Nc1c2ncn3c2nc[n+]1[C@@H]1O[C@H](COP(=O)(O)OP(=O)([O-])OC[C@H]2O[C@@H]3[C@@H](O)[C@@H]2O)[C@@H](O)[C@H]1O	cADPR receptor, sea urchin	Ca2+ release	sea urchin egg homogenate	concentration not given	–	activity	inactive
CC(=O)N[C@H]1[C@@H](OP(=O)(O)OP(=O)(O)OC[C@H]2O[C@@H](n3ccc(=O)[nH]c3=O)[C@H](O)[C@@H]2O)O[C@H](CO)[C@@H](O)[C@@H]1O	ABO G235S/G268A/L266M/R176G	binding, NMR	–	–	–	kon	190000 M⁻¹ s⁻¹
O=C1c2ccc(O)cc2OC(Oc2ccc(-c3coc4cc(O)ccc4c3=O)cc2)C1(O)c1ccc(O)cc1 (stereo not shown)	PRXC1A (Armoracia rusticana, UniProt P00433)	substrate, Hill kinetic model	–	product formation, with: hydrogen peroxide NG	–	Hill coefficient	0.856
C=CCC1NC(=O)C=CC(=O)NC(C(N)=O)CCNC(=O)C(CCCNC(=O)c2cnccn2)NC(=O)C(Cc2ccco2)NC1=O (stereo not shown)	MAP kinase-activated protein kinase 2 (MAPKAPK2, Homo sapiens, UniProt P49137)	DNA-templated library selection	–	one selection round	–	enrichment factor	1.2
CCC(=C(c1ccc(O)cc1)c1ccc(OCCN(C)CCOCCOCCOCCOCCOCCOCCOCCOCCOCCOCCOCCN(C)CCOc2ccc(C(=C(CC)c3ccccc3)c3ccc(O)cc3)cc2)cc1)c1ccccc1 (mixture of isomers)	Estrogen receptor beta (ESR2, Homo sapiens, UniProt Q92731)	radioligand competition binding	–	concentration not given, Z-E/E isomer form, with: [3H]estradiol tracer	relative to: estradiol	relative binding affinity	7.6 ± 2.2%

Excerpt of the above:
SMILES	target	test	system	conditions	scale	quantity	result
CC1=C(/C=C/C(=O)N2CCN(C(N)=O)CC2)C(C)(C)CCC1	Rhodopsin (RHO, Homo sapiens, UniProt P08100, T17M)	pharmacological chaperone, confocal microscopy	T-REx-293 expressing T17M opsin	concentration not given	relative to: DMSO	plasma membrane association	increased
CCNC(=O)[C@H]1O[C@@H](n2cnc3c(NCCCNC(=O)CCCCCNC(=O)COc4ccc(/C=C/C5=[N+]6C(=Cc7ccc(-c8cccs8)n7[B-]6(F)F)C=C5)cc4)ncnc32)[C@H](O)[C@@H]1O	ADORA1	CRE reporter gene, agonist	CHO-A1	PTX 100 ng/mL overnight, with: forskolin 3 µM	relative to: forskolin alone	maximal Gs response	1.67 ± 0.06 fold increase
C[C@@H]1O[C@@H](O[C@H]2C(=O)c3c(O)cc(O)cc3O[C@@H]2c2ccc(O)cc2)[C@H](O)[C@H](O)[C@H]1O	Tyrosine-protein phosphatase non-receptor type 1 (PTPN1, Homo sapiens, UniProt P18031)	fluorescence quenching	–	concentration not given	–	binding site number	1.02
CCCCCC(C)NCC(=O)O (stereo not shown)	ALB	circular dichroism	–	0.12 mM	–	β-sheet content	8.2%
